Experimental data of several laboratories.
Numbers after ± are the reported error.

SMILES	assay	system	conditions	how to read	measurement	result
C[C@@H](NC(=O)N1C(=O)[C@H](Cc2ccnc(N)c2)[C@H]1C(=O)O)C1CCCCC1	–	healthy adult Chinese volunteers	continuous intravenous infusion, 1.0 mg/kg/h, 5-day infusion, CTCAE 5.0 grading	–	incidence of decreased hemoglobin	12.5%
CC[C@H](C)[C@@H]1NC(=O)[C@@H]2CSSC[C@H](NC(=O)[C@H](CCCNC(=N)N)NC(=O)[C@@H]3CSSC[C@H](NC1=O)C(=O)N[C@@H]([C@@H](C)O)C(=O)N[C@@H](CCCNC(=N)N)C(=O)NCC(=O)N[C@@H](Cc1ccccc1)C(=O)N3)C(=O)N[C@@H](CC(C)C)C(=O)N[C@H]1CSSC[C@H](NC(=O)[C@H](C(C)C)NC(=O)CNC(=O)[C@H](CCCNC(=N)N)NC(=O)[C@H](CCCNC(=N)N)NC1=O)C(=O)N[C@@H](CCCNC(=N)N)C(=O)N2	–	Sprague-Dawley rat, female, lung	10 mg/kg, perivascular, peribronchiolar	direction not given	lung eosinophilic infiltration score	1 to 2
CC(=O)c1c(C)c2cnc(Nc3ccc(C4CCN(CCS(C)(=O)=O)CC4)cn3)nc2n(C2CCCC2)c1=O	–	human patients, plasma	oral, 100 mg twice daily, day 21 multiple doses	–	elimination rate constant	2.78e-05 s⁻¹
CN[C@H](CC(C)C)C(=O)N[C@H]1C(=O)N[C@@H](CC(N)=O)C(=O)N[C@H]2C(=O)N[C@H]3C(=O)N[C@H](C(=O)N[C@H](C(=O)O)c4cc(O)cc(O)c4-c4cc3ccc4O)[C@H](O)c3ccc(c(Cl)c3)Oc3cc2cc(c3O[C@@H]2O[C@H](CO)[C@@H](O)[C@H](O)[C@H]2O[C@H]2C[C@](C)(N)[C@H](O)[C@H](C)O2)Oc2ccc(cc2Cl)[C@H]1O	population PK model	human neonates	dose not given	–	volume of distribution, bootstrap median	0.904 L
CC(C)[C@@H]1NC(=O)[C@@H]2CSSC[C@@H]3NC(=O)[C@H]([C@@H](C)O)NC(=O)[C@@H]4CSSC[C@H](NC(=O)[C@H](C(C)C)NC(=O)[C@@H]5CCCN5C(=O)[C@H](CCCCN)NC(=O)CNC(=O)[C@H](CC(N)=O)NC(=O)[C@H](CCCNC(=N)N)NC(=O)[C@H]([C@@H](C)O)NC(=O)[C@H](CSSC[C@H](NC(=O)[C@H]([C@@H](C)O)NC(=O)CNC(=O)CNC1=O)C(=O)N[C@@H](CC(N)=O)C(=O)N[C@@H]([C@@H](C)O)C(=O)N1CCC[C@H]1C(=O)NCC(=O)N4)NC(=O)[C@H](C(C)C)NC(=O)[C@@H]1CCCN1C(=O)[C@H](Cc1c[nH]c4ccccc14)NC(=O)[C@H](CO)NC3=O)C(=O)NCC(=O)N[C@@H](CCC(=O)O)C(=O)N[C@@H]([C@@H](C)O)C(=O)N2	HPLC	ammonium bicarbonate 0.1 M	180 µM, 7 days, pH 9.0, 37 °C, deamidation stability	–	remaining peptide	68.7 ± 3%
CCCSc1ccc2nc(NC(=O)OC)[nH]c2c1	–	mouse, blood	oral, 50 mg/kg, tolerability, mean	–	lymphocytes	79.9%
CN1CCN(c2ccc(Nc3nccc(-c4cccc([N+](=O)[O-])c4)n3)cc2C(F)(F)F)CC1	–	Danio rerio embryos	5 µM, 5 d	–	toxicity	0%
O=C(O)CCS(=O)(=O)O	–	human, plasma	oral, 265 mg twice daily, steady state week 65	–	MRT(0-inf)	54.9 h
CN[C@H]1CC[C@@H](c2ccc(Cl)c(Cl)c2)c2ccccc21	–	CD-1 mouse, male, plasma	intraperitoneal, 0.3 mg/kg	–	Tmax	0.25 h
CC(C)C[C@@H]1NC(=O)CNC(=O)[C@H](CC(N)=O)NC(=O)[C@H](CCCCN)NC(=O)[C@H]([C@@H](C)O)NC(=O)[C@@H]2CSSC[C@@H]3NC(=O)[C@H]([C@@H](C)O)NC(=O)CNC(=O)CNC(=O)[C@H](C(C)C)NC(=O)[C@@H]4CSSC[C@H](NC(=O)[C@H]([C@@H](C)O)NC(=O)[C@H](CSSC[C@H](NC(=O)[C@H](C(C)C)NC(=O)[C@@H]5CCCN5C1=O)C(=O)NCC(=O)N[C@@H](CCC(=O)O)C(=O)N[C@@H]([C@@H](C)O)C(=O)N4)NC(=O)CNC(=O)[C@@H]1CCCN1C(=O)[C@H]([C@@H](C)O)NC(=O)[C@H](CC(N)=O)NC3=O)C(=O)N[C@@H](CO)C(=O)N[C@@H](Cc1c[nH]c3ccccc13)C(=O)N1CCC[C@H]1C(=O)N[C@@H](C(C)C)C(=O)N2	HPLC	ammonium bicarbonate	180 µM, 7 days, pH 9.0, 25 °C, deamidation stability	–	remaining peptide	96 ± 0.7%
CC(C)n1c(C2CCNCC2)nc2c([N+](=O)[O-])c(Br)c(Br)cc21	item: Hyponatremia	AML patients	125 mg	–	adverse events causing interruption	2%
CC(C)(c1ccccc1)c1cc(-n2nc3ccccc3n2)c(O)c(C(C)(C)c2ccccc2)c1	exposure assessment	human, age 21-60 years	concentration not given, spray sunscreen, 95th percentile	–	daily dermal uptake, percentile	58.8 ng/kg body weight/day
COc1ccnc(C(=O)N[C@H]2COC(=O)[C@H](Cc3ccccc3)[C@@H](OC(=O)C(C)C)[C@H](C)OC2=O)c1OCOC(=O)C(C)C	–	field soil, loam	actual, UK	–	DT50	11.6 days
C=CC(=O)Nc1cc(Nc2nccc(Nc3cc(Cl)c(F)cc3C(C)(C)O)n2)c(OC)cc1N1CC[C@@H](N(C)C)C1	–	human patients	oral, 300 mg, treatment-emergent adverse events	–	patients with AST increased	9.8%
c1ccc2c(c1)ccc1c3ccccc3ccc21	–	fresh water	12 (unit not given), 20 °C, S100 sampler, 100 µm	–	log K(PDMS-water)	4.72 ± 0.01
CC(C)CC(=O)OC[C@H]1O[C@@](C#N)(c2ccc3c(N)ncnn23)[C@H](O)[C@@H]1O	–	Sprague-Dawley rat, male, faeces	80 mg/kg, time not given	baseline: dose	recovery in faeces	0.0767%
CO[C@H]1C[C@@H]2CC[C@@H](C)[C@@](O)(O2)C(=O)C(=O)N2CCCC[C@H]2C(=O)O[C@H]([C@H](C)C[C@@H]2CC[C@@H](OC(=O)NCCOCCOCCOCCOCCOCCOCCOCCOCCC(=O)N3CCc4cc(Cn5nc(-c6ccc7oc(N)nc7c6)c6c(N)ncnc65)ccc4C3)[C@H](OC)C2)C[C@@H](O)[C@H](C)/C=C(\C)[C@@H](O)[C@@H](OC)C(=O)[C@H](C)C[C@H](C)/C=C/C=C/C=C/1C	phase 1 dose escalation	advanced solid tumour patients	intravenous, 10 mg weekly, any grade	–	any SAE incidence	25%
c1cc2ccc3cccc4ccc(c1)c2c34	–	PDMS-water partitioning	PAH compilation	–	literature range of log K	4.22 to 4.73 log units
CCN1[C@@H](C(=O)NC23CCC(C(=O)O)(CC2)CC3)[C@H](c2cccc(Cl)c2F)[C@]2(C(=O)Nc3cc(Cl)ccc32)C12CCCCC2	–	patients with advanced solid tumours	oral, 100 mg	–	grade ≥3 Leukopenia incidence	9.1%
C=CCNc1c(O)cc2c(O)c1C[C@@H](C)C[C@H](OC)[C@H](O)[C@@H](C)/C=C(\C)[C@H](OC(N)=O)[C@@H](OC)/C=C\C=C(/C)C(=O)N2	–	unresectable or metastatic STS, GIST, other	intravenous, 400 mg/m^2	–	patients with headache TEAE	63%

SMILES	assay	system	conditions	how to read	measurement	result
O[C@H]1CCCN[C@@H]1CCCn1cnc2c(Cl)c(Cl)ccc21	–	healthy CYP2D6 EM and UM, plasma	oral, 150 mg single dose	–	median Cmax	0.255 µg/mL
CN1CCN(S(=O)(=O)c2cc([N+](=O)[O-])ccc2N(CCOS(C)(=O)=O)CCOS(C)(=O)=O)CC1	–	NSG mice, plasma	intraperitoneal, 10 mg/kg, 2 h	–	concentration	not detected
Fc1ccc([C@@H]2CCNC[C@H]2COc2ccc3c(c2)OCO3)cc1	item: Vomiting	healthy volunteers	oral, dose not given, given -1 h relative to LSD, with: LSD	direction not given	List of Complaints score	0 score
O=C(O)CCCOc1ccc(F)cc1-c1cc(-c2ccccc2C(F)(F)F)n(-c2ccccc2)n1	item: Basophils	Crl:CD(SD) rats, female, blood	iv, 25 µg/kg, 14 days	–	leukocyte differential	0.2 ± 0.1%
CN1CC[C@@H](c2c(O)cc(O)c3c(=O)cc(-c4ccc(C(F)(F)F)cc4Cl)oc23)[C@@H]1CO	item: Hypertension	B-cell malignancies or AML	oral, 50 mg, continuous dosing	–	patients with adverse event	12.5%
C[C@]1(O)C[C@@](N)(c2ccc(-c3nc4n(c3-c3ccccc3)COc3ccncc3-4)cc2)C1	–	human, advanced or metastatic solid tumours	28 mg intermittent, phase I dose escalation	–	patients with Hyperglycemia TEAE	66.7%
COc1cc(C2C3=C(COC3=O)N(CCO)c3cc4c(cc32)CCC4)cc(OC)c1OC (stereo not drawn)	–	female Sprague-Dawley rats	intraperitoneal, 200 mg/kg, 48 h, single dose, mean	–	body weight	211 g
C[C@@H]1OC(=O)NN=C1c1ccc(-c2ccc(F)cc2)c(C(F)(F)F)c1	phase I trial, item: Nausea all grades	human patients	20 mg loading then 1 mg daily	–	patients with adverse event	0%
O=C(Nc1ccccc1)C1CCN(C(=O)Oc2cccnc2)CC1	Bond-Lader VAS	healthy women	oral, 100 mg	baseline: pre-dose baseline, direction not given	change in Interested-Bored score	-13
CCc1ccc(CC/C=C/c2ccc3c(c2)C(=O)CC3)cc1	–	Sprague-Dawley rat, male, serum	oral, 30 mg/kg/day, 14 days	–	chloride	104 mM
NCCCC[C@@H]1NC(=O)[C@@H](Cc2c[nH]c3ccccc23)NC(=O)[C@H](c2ccccc2)NC(=O)[C@@H]2C[C@@H](OC(=O)NCCN)CN2C(=O)[C@H](Cc2ccccc2)NC(=O)[C@H](Cc2ccc(OCc3ccccc3)cc2)NC1=O	–	healthy human volunteers	1950 µg twice daily	–	subjects with any adverse event	100%
CCN1CCN(Cc2ccc(Nc3ncc(F)c(-c4cc(F)c5nc6n(c5c4)[C@H](C)CCC6)n3)nc2)CC1	–	advanced solid tumour patients	dose not given, Phase Ia monotherapy	–	Diarrhea incidence, grade ≥3	16.7%
N=C(N)NCCC[C@@H](NC(=O)[C@@H](N)Cc1ccccc1)C(=O)N[C@@H](Cc1ccccc1)C(=O)N[C@@H](CCCCN)C(N)=O	LC-MS	human	25 mg, 5.833 h	–	mean amount excreted in urine	7.75e+06 ng
COc1cc2c(Oc3ccc4[nH]c(C)cc4c3F)ccnc2cc1OCC1(N)CC1	–	paediatric recurrent refractory sarcoma	8 mg/kg	–	grade 1 or 2 Hypertension	0%
COc1ccc(-c2c(-c3ccc(C#N)c(F)c3)nc(N3CCC(N)CC3)n(C)c2=O)cc1F	item: Dyspnea	human patients	oral, dose not given, dose escalation, NG	–	serious adverse event incidence	2%
Clc1ccc(Cl)c(-c2ccccc2Cl)c1	–	fresh water	20 °C, S100 sampler, 100 µm	–	log K(PDMS-water)	4.98 ± 0.04
CC/C(=C(\c1ccccc1)c1ccc(OCCN(C)C)cc1)c1ccccc1	–	CD-1 mouse, male, lung	intraperitoneal, 3 mg/kg	–	elimination rate constant	2.9e-05 s⁻¹
CC(C)C[C@H](NC(=O)[C@H](CCCCN)NC(=O)OCC1c2ccccc2-c2ccccc21)C(=O)N[C@H](C(=O)N[C@@H](Cc1ccccc1)C(=O)N[C@@H](Cc1ccccc1)C(=O)N[C@@H](CCCCN)C(=O)NCC(=O)N[C@@H](Cc1ccccc1)C(=O)N[C@@H](C)C(=O)N[C@@H](Cc1c[nH]c2ccccc12)C(=O)N[C@@H](CC(N)=O)C(=O)N[C@H](C(=O)N[C@H]1CSSC[C@@H](C(=O)N[C@@H](Cc2c[nH]cn2)C(=O)N[C@@H](CCCNC(=N)N)C(=O)N[C@@H](CCCNC(=N)N)C(=O)N[C@@H](C)C(=O)N[C@@H](CC(N)=O)C(N)=O)NC(=O)[C@H](C(C)C)NC(=O)[C@H](CCCNC(=N)N)NC(=O)[C@H](C(C)C)NC(=O)CNC(=O)[C@H](CC(N)=O)NC(=O)[C@H](CCCNC(=N)N)NC(=O)[C@H](Cc2ccc(O)cc2)NC(=O)[C@H](C(C)C)NC1=O)C(C)C)C(C)C	–	ICR mouse	ip, 10 mg/kg	direction not given	stimulus response score	0
Cc1ccc2c(c1)C(=O)C1(O)CCN(c3ccccc3)C1=N2 (stereo not drawn)	echocardiography	rat	intravenous infusion, 0.5 mg/kg, 10 min	–	cardiac output reduction	25 to 50%

For quick reference, copied from above:
SMILES	assay	system	conditions	how to read	measurement	result
CN1CCN(c2ccc(Nc3nccc(-c4cccc([N+](=O)[O-])c4)n3)cc2C(F)(F)F)CC1	–	Danio rerio embryos	5 µM, 5 d	–	toxicity	0%
O=C(O)CCS(=O)(=O)O	–	human, plasma	oral, 265 mg twice daily, steady state week 65	–	MRT(0-inf)	54.9 h
CN[C@H]1CC[C@@H](c2ccc(Cl)c(Cl)c2)c2ccccc21	–	CD-1 mouse, male, plasma	intraperitoneal, 0.3 mg/kg	–	Tmax	0.25 h
CC(C)C[C@@H]1NC(=O)CNC(=O)[C@H](CC(N)=O)NC(=O)[C@H](CCCCN)NC(=O)[C@H]([C@@H](C)O)NC(=O)[C@@H]2CSSC[C@@H]3NC(=O)[C@H]([C@@H](C)O)NC(=O)CNC(=O)CNC(=O)[C@H](C(C)C)NC(=O)[C@@H]4CSSC[C@H](NC(=O)[C@H]([C@@H](C)O)NC(=O)[C@H](CSSC[C@H](NC(=O)[C@H](C(C)C)NC(=O)[C@@H]5CCCN5C1=O)C(=O)NCC(=O)N[C@@H](CCC(=O)O)C(=O)N[C@@H]([C@@H](C)O)C(=O)N4)NC(=O)CNC(=O)[C@@H]1CCCN1C(=O)[C@H]([C@@H](C)O)NC(=O)[C@H](CC(N)=O)NC3=O)C(=O)N[C@@H](CO)C(=O)N[C@@H](Cc1c[nH]c3ccccc13)C(=O)N1CCC[C@H]1C(=O)N[C@@H](C(C)C)C(=O)N2	HPLC	ammonium bicarbonate	180 µM, 7 days, pH 9.0, 25 °C, deamidation stability	–	remaining peptide	96 ± 0.7%
CC(C)n1c(C2CCNCC2)nc2c([N+](=O)[O-])c(Br)c(Br)cc21	item: Hyponatremia	AML patients	125 mg	–	adverse events causing interruption	2%
CC(C)(c1ccccc1)c1cc(-n2nc3ccccc3n2)c(O)c(C(C)(C)c2ccccc2)c1	exposure assessment	human, age 21-60 years	concentration not given, spray sunscreen, 95th percentile	–	daily dermal uptake, percentile	58.8 ng/kg body weight/day
